Measurements gathered from unrelated publications.
Compare with care: the assays were run in different laboratories. Numbers after ± are the reported error.

N#Cc1ccc(Nc2nc(N)cc(Oc3c(F)cc(-c4ccc(C#N)cc4)cc3F)n2)cc1
remaining compound (monkey plasma, diluted in PBS; 1.00 µM, 1.00 h, 37 °C): 85.4%

C=CC(=O)N1CCC(C(=O)N(C)CC(=O)N2CCN(c3nc(-c4cnc(N)nc4C(F)F)nc(N4CCOCC4)n3)CC2)CC1
remaining compound (microsomes, rat liver, male, Sprague-Dawley; 1 µM, 10 min, 0.5 mg/mL microsomal protein, with: NADPH): 120%

COc1ccc2c(Cc3ccccc3F)c3n(c(=O)c2c1OC)CCc1cc2c(cc1-3)OCO2
remaining compound (rat liver microsomes; 10 µM, 30 min, pH 7.4, with: microsomes 0.5 mg/mL): 35 ± 3%

COc1ccc(-c2cc(NCCCN3CCCCC3)c3ccccc3n2)cc1
remaining compound (human plasma; 1 h): 97.4%

N#C[C@@]12C[C@@H]1[C@@H](n1cnc3c(N[C@@H](C4CCC4)C4CC4)nc(I)nc31)[C@H](O)[C@@H]2O
remaining compound (plasma stability; human plasma; 120 min): 93.3%

NCc1cc2c(cc1F)C(=O)N(C1CCC(=O)NC1=O)C2 (stereo not shown)
remaining compound (male Göttingen minipig, whole blood; 3 h): < 1%

Cc1cc(Oc2ncccc2CN2CCN(c3cccc(C)c3C)CC2)ccc1-c1c(C)c(=O)[nH]c(=O)n1C
remaining compound (rat plasma; 1 µM, 2 h): 92%

Cc1nc2ccc(OCc3ccc(C(F)(F)F)cc3)cc2[nH]1
remaining compound (human liver S9; 1 µM, 90 min, pH 7.4): 76%

Cc1[nH]c2ccccc2c1CCNC(=O)c1ccc(N2CCOCC2)cc1
remaining compound (mouse liver microsomes; 60 min): < 1%

Cn1cncc1-c1c(F)cncc1NC(=O)c1c(N)nn2cc(F)cnc12
remaining compound (human EDTA plasma; 15 ng/mL, 6 months, -80 °C, low QC): 104%

COc1ccc2[nH]c([S+]([O-])Cc3ncc(C)c(OC)c3C)nc2c1 (stereo not shown)
remaining compound (simulated gastric fluid with pepsin; 1 µM, 60 min, pH 1.2): 0%

CCOc1ccc2ccc(=O)oc2c1
remaining compound (mouse liver microsomes; 1 µM, 20 min, pH 7.4): 0.6%

C/C(=N\NC(=O)c1cccc(S(=O)(=O)N2CCN(C)CC2)c1)c1cc(Cl)ccc1O
remaining compound (aqueous buffer; 4 days, 37 °C): 74%

CC(C)=CCC[C@](C)(O[C@@H]1O[C@H](CO)[C@@H](O)[C@H](O)[C@H]1O)[C@H]1CC[C@]2(C)[C@@H]1[C@H](O)C[C@@H]1[C@@]3(C)CC[C@H](O[C@@H]4O[C@H](CO)[C@@H](O)[C@H](O)[C@H]4O[C@@H]4O[C@H](CO)[C@@H](O)[C@H](O)[C@H]4O)C(C)(C)[C@@H]3CC[C@]12C
remaining compound (rat plasma; 5 ng/mL, 24 h, room temperature): 108 ± 7.5%

N[C@H]1CC[C@H](N[C@@H]2C[C@H]2c2ccccc2)CC1
remaining compound (aqueous buffer; 4 days, 37 °C): 94%

CCN(CC)CCOC(=O)c1ccc(N)cc1
remaining compound (human plasma; 10 µM, 5 min): 2.2%

O=C(N/N=C/c1ccccc1O)c1ccncc1
remaining compound (LC-MS; rat plasma; 100 µM, 10 h, 37 °C): < 2.5%

CO[C@@H](C[C@H]1C(C)=CC[C@@H]2[C@]3(C)C[C@H](O[C@@H]4O[C@@H](C)[C@H](OC(=O)c5cccc(O)c5)[C@@H](O[C@@H]5O[C@H](CO)[C@@H](O)[C@H](O)[C@H]5NC(C)=O)[C@H]4O)[C@@H](O)C(C)(C)[C@H]3CC[C@]21C)[C@H](N)C(=O)O.O=C(O)C(F)(F)F
remaining compound (simulated gastric fluid with pepsin; 1 µM, 0 min, pH 1.2): 100%

O=Cc1cc2ccccc2cc1C=O
remaining compound (HPLC-MS; HEPES buffer with 10% acetonitrile; 1 mM, 1 h, pH 7.4): 82%

C#CCN(C)Cc1ccccc1
remaining compound (LC-MS; PBS with 25% DMSO; 5 mM, 144 h, 37 °C): 95%

C#Cc1ccc(C(F)(F)F)cc1C=O
remaining compound (HPLC-MS; HEPES buffer with 10% acetonitrile; 1 mM, 1 h, pH 7.4): 98%

C[C@]1(C(=O)[C@H](CC2=CCCC2)NC(=O)[C@@H]2Cc3ccc(cc3)OCCCCCCCC(=O)N3CCC[C@H]3C(=O)N2)CO1
remaining compound (human liver microsomes; 60 min): not detected

C=CC(=O)Nc1cccc(-n2nc3c(=O)[nH]nc(N)c3c2-c2oc3ccc(C)cc3c2C)c1
remaining compound (BALB/c nude mouse whole blood; 1 µM, 1 h, 37 °C): 65.8%

Cc1cc(Oc2ncccc2CN2CCN(c3ncccc3C(F)(F)F)CC2)ccc1-c1c(C)c(=O)[nH]c(=O)n1C
remaining compound (metabolic stability; rat liver S9 fraction; 2 µM, 0.6667 h, pH 7.4): 90%

COC(=O)/C=C/c1ccc(OCCN(C)C(=O)c2ccccc2)cc1
remaining compound (HPLC; Tris buffer; 100 µM, 72 h, pH 8.5, 37 °C, with: glutathione 5 mM; baseline: time zero): > 80%

CCOC(=O)[C@H](CCc1ccccc1)N[C@@H](C)C(=O)N1CCC[C@H]1C(=O)O
remaining compound (mouse plasma; 10 µM, 120 min): 24.6%

CNc1cc[n+](CCNC(=O)c2ccn3c(-c4c(C)noc4C)cnc3c2)cc1.[Cl-]
remaining compound (0.1 M HCl; 1 weeks, pH 1, room temperature): 100 % peak area

CC(C)(C)OC(=O)NC(c1cccc(F)c1)C(F)(F)C(=O)c1ccc(Cl)cc1 (stereo not shown)
remaining compound (rat serum; 30 min; baseline: time zero): 75.5%

Cc1cc2ccccc2n1CCNC(=O)c1ccc(N2CCCC2)cc1
remaining compound (mouse liver microsomes; 60 min): > 7%

c1ccc(-c2cc(NCCCN3CCCCC3)c3ccccc3n2)cc1
remaining compound (human liver microsomes; 1 h): 36.6%

CSc1nccc(C(=O)N[C@@H](CCC(=O)O)C(=O)N[C@@H](Cc2ccc3ccccc3c2)C(=O)N[C@@H](CC(C)C)C(=O)NC2CC2c2ccccc2)n1 (stereo partly shown)
remaining compound (pooled human plasma; 0 min, 37 °C): 100%

C=CC(=O)N1CCC(C(=O)NCC(=O)N2CCN(c3nc(-c4cnc(N)nc4C(F)F)nc(N4CCOCC4)n3)CC2)CC1
remaining compound (microsomes, rat liver, male, Sprague-Dawley; 1 µM, 60 min, 0.5 mg/mL microsomal protein, with: NADPH): 96.5%

O=C(Nc1ccc(F)cc1)N1CCNCC1COc1ccc2ccccc2c1 (stereo not shown)
remaining compound (mouse liver microsomes; 90 min): 43 ± 3%

CC(C(=O)Nc1c(F)cccc1F)N1CCN(c2ccccc2)CC1 (stereo not shown)
remaining compound (mouse plasma; 1 µM, 4 h, 37 °C): ~91.5%

NC(=O)c1ccccc1NC(=O)c1ccc(-c2ccccc2)cc1
remaining compound (human plasma; 2 µM, 2 h, 37 °C): 103%

NC(=O)c1ccc(-c2cc(NCCCN3CCCCC3)c3ccccc3n2)cc1
remaining compound (human plasma; 1 h): 94.6%

CC[C@H](C)C(=O)O[C@H]1C[C@@H](C)C=C2C=C[C@H](C)[C@H](CC[C@@H]3C[C@@H](O)CC(=O)O3)[C@H]21
remaining compound (mouse liver microsomes; 15 min): not detected

COc1ccc2c(Cc3ccccc3F)c3[n+](cc2c1OC)CCc1cc2c(cc1-3)OCO2.[Br-]
remaining compound (rat liver microsomes; 10 µM, 30 min, pH 7.4, with: microsomes 0.5 mg/mL): 14.4 ± 1.9%

N.O=C(Nc1nc2ccccc2s1)NS(=O)(=O)O
remaining compound (dog liver microsomes; 4 µM, 30 min): 0%

CC[N+]1(C)CCN(c2ccc(NC(=O)c3cccc(C)n3)cc2)CC1
remaining compound (pooled BALB/c mouse plasma; 1 µM, 2 h): 105%

CSc1ncc(Br)c(C(=O)N[C@@H](CCC(=O)O)C(=O)N[C@@H](Cc2ccc3ccccc3c2)C(=O)N[C@@H](CC(C)C)C(=O)N[C@@H]2C[C@H]2c2ccccc2)n1
remaining compound (pooled human plasma; 0 min, 37 °C): 100%

N=C(N)Nc1cccc(C(=O)NCC(=O)NC[C@H](NC(=O)c2c(Cl)cc(-c3ccccc3)cc2Cl)C(=O)O)c1
remaining compound (mouse liver microsomes; 45 min): 93%

O=C(O)c1ccc(CN2CCC(CN[C@@H]3C[C@H]3c3ccccc3)CC2)cc1
remaining compound (aqueous buffer; 4 days, 37 °C): 98%

For quick reference, copied from above:
Cc1cc(Oc2ncccc2CN2CCN(c3ncccc3C(F)(F)F)CC2)ccc1-c1c(C)c(=O)[nH]c(=O)n1C
remaining compound (metabolic stability; rat liver S9 fraction; 2 µM, 0.6667 h, pH 7.4): 90%

O=C(N/N=C/c1ccccc1O)c1ccncc1
remaining compound (LC-MS; rat plasma; 100 µM, 10 h, 37 °C): < 2.5%

c1ccc(-c2cc(NCCCN3CCCCC3)c3ccccc3n2)cc1
remaining compound (human liver microsomes; 1 h): 36.6%
